# Experimental data of several laboratories.
# A part holds a random share of what one study measured. Positions count from the first letter of the parent shown.

# Series 1 — method: aptamer microarray, sandwich; molecule type: DNA with 2'F-ANA; matrix: in vitro; tested at: 200 nM; with: Cy3 exosite-II aptamer, 400 nM; reading: higher = stronger binding; strand: GGTTGGTGTGGTTGG
# Target: Prothrombin, mature alpha-thrombin (F2, Homo sapiens, UniProt P00734)
# Setting: whole 15-mer aptamer, many near background
Modification,mean fluorescence intensity
2'F-ANA at 1 5 6 10 12 13 14,41.4 a.u.
2'F-ANA at 2 4 5 7 8 13 15,60.9 a.u.
2'F-ANA at 1 3 4 8 10 11 12 14,53.1 a.u.
2'F-ANA at 1 2 6 9 15,164 a.u.
2'F-ANA at 1 2 3 5 11 12 13 14,70.3 a.u.
2'F-ANA at 3 7 8 12 13,1310 a.u.
2'F-ANA at 2 3 4 5 7 8 9 10,54.1 a.u.
2'F-ANA at 1 2 4 6 9 11 12 13 15,133 a.u.
2'F-ANA at 1 2 3 4 7 8 10 11 13 14 15,52 a.u.
2'F-ANA at 1 3 5 9 12 14,42.7 a.u.
2'F-ANA at 2 6 7 8 9 12,693 a.u.
2'F-ANA at 1 3 4 5 7 12 13 15,78.2 a.u.
2'F-ANA at 1 2 4 5 8 11 14 15,45.9 a.u.
2'F-ANA at 1 3 4 7 8 11 12,372 a.u.
2'F-ANA at 1 2 3 4 7 10 12 13 15,87.3 a.u.
2'F-ANA at 1 3 5 6 7 9 10 11 12 13,76.7 a.u.
2'F-ANA at 1 8 10 12 13 14 15,48.1 a.u.
2'F-ANA at 1 2 3 8 9 13 14,68.8 a.u.
2'F-ANA at 5 7 8 9 10 13 14,48.4 a.u.
2'F-ANA at 1 3 4 5 6 7 8 9 10 12 14,61.7 a.u.
2'F-ANA at 1 4 7 13,106 a.u.
2'F-ANA at 3 5 6 8 9 13 14,57.9 a.u.
2'F-ANA at 1 4 6 7 11 13 14,77.3 a.u.

# Series 2 — method: RNA Bind-n-Seq; molecule type: RNA; matrix: in vitro; tested at: 100 nM; baseline: input RNA pool; reading: higher = stronger binding
# Target: RING finger protein unkempt homolog, zinc fingers 1-6, SBP tag (UNK, Homo sapiens, UniProt Q9C0B0, residues 30-357)
# Chain of UniProt Q9C0B0 (30-357, looked up): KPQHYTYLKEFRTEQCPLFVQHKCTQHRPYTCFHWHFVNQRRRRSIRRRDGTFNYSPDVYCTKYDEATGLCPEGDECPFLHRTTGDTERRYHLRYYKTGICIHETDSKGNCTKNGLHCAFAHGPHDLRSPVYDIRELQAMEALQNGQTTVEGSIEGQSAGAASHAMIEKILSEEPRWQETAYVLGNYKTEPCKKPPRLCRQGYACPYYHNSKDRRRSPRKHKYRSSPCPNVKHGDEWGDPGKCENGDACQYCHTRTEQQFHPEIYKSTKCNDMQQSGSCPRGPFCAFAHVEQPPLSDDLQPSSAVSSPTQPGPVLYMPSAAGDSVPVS
# Setting: RNA with constant flanks, vertebrate orthologous sites, ends assumed
Strand,bound/input enrichment [ratio]
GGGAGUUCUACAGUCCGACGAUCUGGGUUACUCCUAUUAUUAUCAAGUAGCUGGAAUUGUGAAGGUCGGAGUAGUUAGAUCUUUAGCUUUUAUUCCUUAUUUUUUUUUUUGUAUUACUCUCCAUGUGUAUAAAUUAUUGAUCACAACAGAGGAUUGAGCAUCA,6.38
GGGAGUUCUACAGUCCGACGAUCGUGAGGGUCUACUGACCACUCACUGUCAUGUCUGGUAUCUGUAAACACUCUUUUCGUUCUUAGUCUUUUUCUUGUAUAAUUGAUGUUCUUUAAAAUUGUUAAUGUAUAACAGGGCUUAUGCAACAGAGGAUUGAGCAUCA,1.92
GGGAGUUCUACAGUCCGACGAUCACGUUUUGACAUCAAGUUCACCAUCAAAACCAAGUCAUGACCUUAGCUGUGAAAAUAGCUUUUAUUCUGCCCAUUUCAAAACACAAUAAUUUAGACGAAUAAACGGAGACGAGUGCAAAUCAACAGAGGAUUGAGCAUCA,1.08
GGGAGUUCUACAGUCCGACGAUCUCCUGUCCUGACUUUUAAAAGGCCCUUAUAUUUCUCUUUUCUUUUUUUUUUUCUUUUACAGGAUAUGUAGUAUAUUAGCAGAAAGAUUUAAUUUGGGCAACUUUGAUUCUUAAAGCAUGUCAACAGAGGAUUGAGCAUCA,0.846
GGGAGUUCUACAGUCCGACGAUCUGGGUUAUUCCUAUUAUUAUCAAGUAGCUGGAAUUGUGAAGGUUGGAGUAGUUAGAUCUUUAGCUUUUAUUCCUUUUUUUUGUAUUACUAUCCAUGUGUAUAAAUUAUUGAUCAUGUUGCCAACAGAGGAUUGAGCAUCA,2.09
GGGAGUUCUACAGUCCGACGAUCUUCAGGCACAACUGACUGGUUCACAGAAUUCCUUACAUAGUUACCUAUCAAAUGCAAGUGUAGUUAAUUUUCAGGAAACAACCAGGCAGUCCUCUUUAUCCUGUAGCUCUAUUGGAGAUUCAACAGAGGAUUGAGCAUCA,1.12
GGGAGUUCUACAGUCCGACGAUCUGACCACACAUACAAAAUGUGCUUUGAGCGGUGGGCGUGAGUGAAGCCAAGGCUUGAGUAGAAUUCACUUUUUAGACCUAUACAGCACGGAAGCGUCCAUGAGCCAGAGGUGAGUUCUUACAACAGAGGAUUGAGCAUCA,0.361
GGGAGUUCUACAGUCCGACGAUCGUUGGGCCAUGACCCCUAUAGAUUAGGUCAUGAUGCUUACAGGUUAGGACAAGACCCUUAUAGAUUAGGCCAUGAUCCCUACAGACUAACUCCUGAUCCCUAUAGGAUGUCACCUAGACCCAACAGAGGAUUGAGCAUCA,0.816
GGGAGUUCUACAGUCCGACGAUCUUGCUUGUUUUGCAUAAGAGUUUGUAUUAAAGAACUUCAAAGGAAGGAACAGGGAUACUCUAGCAGUGGUCCUCAGGUGCCUGGCCUCCAGUACCCCACUUGGAACCACCCUGUCAGGGUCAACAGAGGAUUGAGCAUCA,0.205
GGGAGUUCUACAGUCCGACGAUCCAACUCAAUGGUGGAGGGUUCAGAACUCAAAAAGGUCCGCUCCAACUCUAGAAUAUACCAUAGGUAUUUUUUACUAGAUGCUGACAUGCAGAGCUUGAGGUGGGAGCCAUCUAAGAAGGACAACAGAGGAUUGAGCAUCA,0.288
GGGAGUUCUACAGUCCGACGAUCCAAGCUCAUUAAGAAAAGCAUUUUUUAAACUGUAUUUAUUUAUGUUUGUAAACUUGUACAUAGUAACAACCCUGCAAAUGUUCUGUUACUCAAUUUUACAUCUUUUAGGUUCUUUUAGGGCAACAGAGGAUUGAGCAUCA,1

# Series 3 — target: UBE2U UBC core domain (UniProt Q5VVX9); method: yeast two-hybrid; matrix: yeast; setting: mostly zero background; baseline: not given; reading: higher = stronger interaction
# Chain of UniProt Q5VVX9 (whole entry, looked up): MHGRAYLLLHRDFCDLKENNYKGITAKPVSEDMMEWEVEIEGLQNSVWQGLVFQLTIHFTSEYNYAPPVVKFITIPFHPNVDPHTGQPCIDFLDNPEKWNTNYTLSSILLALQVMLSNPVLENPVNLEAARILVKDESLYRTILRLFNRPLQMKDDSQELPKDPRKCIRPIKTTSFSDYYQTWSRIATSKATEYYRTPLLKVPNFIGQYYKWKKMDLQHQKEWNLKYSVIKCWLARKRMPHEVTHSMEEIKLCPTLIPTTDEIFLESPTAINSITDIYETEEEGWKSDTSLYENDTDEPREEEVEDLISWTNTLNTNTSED
# B1: SYTL4 RING domain (UniProt Q96C24); chain RGSQHYSDRTCARCQESLGRLSPKTNTCRGCNHLVCRDCRIQESNGTWRCKVCAKEIELKKAT
# B2: UBOX5 RING domain (UniProt O94941); chain EQPGSILGPECASCKRVFSPYFKKEPVYQLPCGHLLCRPCLGEKQRSLPMTCTACQRPVASQDVLR
# B3: MAP3K1 RING domain (UniProt Q13233); chain NSIKDEEEQMCPICLLGMLDEESLTVCEDGCRNKLHHHCMSIWAEECRRNREPLICPLCRSKWRSHDFYS
# B4: SH3RF1 RING domain (UniProt Q7Z6J0); chain DESALLDLLECPVCLERLDASAKVLPCQHTFCKRCLLGIVGSRNELRCPECRTLVGSGVEEL
# B5: TRIM62 RING domain (UniProt Q9BVG3); chain MACSLKDELLCSICLSIYQDPVSLGCEHYFCRRCITEHWVRQEAQGARDCPECRRTFAEPALAP
# B6: RNF133 RING domain (UniProt Q8WVZ7); chain DEEINPNGDSCVICFERYKPNDIVRILTCKHFFHKNCIDPWILPHGTCPICKCDILKVLGIQ
# B7: DZIP3 RING domain (UniProt Q86Y13); chain PDEEEEEEEPCVICHENLSPENLSVLPCAHKFHAQCIRPWLMQQGTCPTCRLHVLLPEEFP
Sequence,lacZ reporter activity
YQNEVDDDLVCHICLQPLLQPLDTPCGHTFCYKCLRNFLQEKDFCPLDRKRLHFKLCKK (LNX2 RING domain (UniProt Q8N448)),5320
B1 (SYTL4 RING domain),0
B2 (UBOX5 RING domain),7120
B3 (MAP3K1 RING domain),10400
NLSELTPYILCSICKGYLIDATTITECLHTFCKSCIVRHFYYSNRCPKCNIVVHQTQPLY (PCGF6 RING domain (UniProt Q9BYE7)),11000
AVPSGLEENLCKICMDSPIDCVLLECGHMVTCTKCGKRMNECPICRQYVIRAVHVF (RFFL RING domain (UniProt Q8WZ73)),0
B4 (SH3RF1 RING domain),0
GSDDEEIPFKCFICRQSFQNPVVTKCRHYFCESCALQHFRTTPRCYVCDQQTNGVFNPA (RNF113A RING domain (UniProt O15541)),9070
B5 (TRIM62 RING domain),0
B6 (RNF133 RING domain),15900
B7 (DZIP3 RING domain),0

# Series 4 — method: DHFR PCA, dose-response; matrix: yeast; setting: Hill fit, mean, not affinity; with: (+)-ABA, dose series; reading: lower = more sensitive
# Target: ABI1, truncated, D143A, DHFR fusion (Arabidopsis thaliana, UniProt P49597)
# Starting sequence: PYL1, truncated, DHFR fusion (Arabidopsis thaliana, UniProt Q8VZS8); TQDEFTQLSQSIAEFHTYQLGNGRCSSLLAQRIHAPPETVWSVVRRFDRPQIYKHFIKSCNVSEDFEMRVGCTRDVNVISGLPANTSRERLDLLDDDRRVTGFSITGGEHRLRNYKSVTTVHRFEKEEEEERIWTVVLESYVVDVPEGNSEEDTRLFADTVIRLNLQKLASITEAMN
Variant,ABA EC50 [µM]
C72G,12.7
E125D,1.67
A30K,1.74
G21T,3.03
Y115F,7.62
G102Q,69.6
T173M,10.9
Q10D,1.75
E151M,5.87
R24P,207
E127C,3.01
D97C,4.82
L156S,2.38
K168W,1.9
E129V,3.86
E152L,5.48
N177G,0.901
D75R,2.34
P37V,3.83
T17H,7.2
S59A,4.23
S26P,266

# Series 5 — target: CCNE2, cyclin fold, Cln2 fusion (human); method: yeast growth competition, sequencing; matrix: yeast; setting: weak parent motif; baseline: not given; reading: higher = stronger binding
# Starting sequence: PKN2 docking peptide (human); VSAVQKLDFSDTM
Variant,normalised enrichment score
F9C,-0.408
S10Q,-0.059
L7Y,-0.316
V1L,-0.252
T12G,0.568
T12V,0.0917
L7A,0.0464
D8N,0.144
S10K,0.356
L7G,-0.189
V4R,0.00743
D11Q,-0.247
M13H,0.582
L7H,0.665
D11A,0.174
D8Y,0.35
D8A,0.395
S2Y,0.247
M13V,0.0978
D8L,0.349
L7E,0.0743
F9Y,-0.0077

# For quick reference, copied from above (series 4):
Variant,ABA EC50 [µM]
D97C,4.82
T17H,7.2
D75R,2.34
E152L,5.48
Q10D,1.75
K168W,1.9
R24P,207
S26P,266
G21T,3.03
P37V,3.83
E151M,5.87
